Results gathered from unrelated publications.
Each line is one published result; not all experiments were run side by side. “And” joins repeats or separate records; there may be more than shown.
T1: itself; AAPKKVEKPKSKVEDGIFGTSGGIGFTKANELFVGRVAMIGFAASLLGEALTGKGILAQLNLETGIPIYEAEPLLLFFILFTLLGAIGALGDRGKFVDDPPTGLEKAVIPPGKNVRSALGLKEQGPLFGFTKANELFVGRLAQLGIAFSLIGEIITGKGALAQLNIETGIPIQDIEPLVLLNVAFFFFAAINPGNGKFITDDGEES
T2: itself; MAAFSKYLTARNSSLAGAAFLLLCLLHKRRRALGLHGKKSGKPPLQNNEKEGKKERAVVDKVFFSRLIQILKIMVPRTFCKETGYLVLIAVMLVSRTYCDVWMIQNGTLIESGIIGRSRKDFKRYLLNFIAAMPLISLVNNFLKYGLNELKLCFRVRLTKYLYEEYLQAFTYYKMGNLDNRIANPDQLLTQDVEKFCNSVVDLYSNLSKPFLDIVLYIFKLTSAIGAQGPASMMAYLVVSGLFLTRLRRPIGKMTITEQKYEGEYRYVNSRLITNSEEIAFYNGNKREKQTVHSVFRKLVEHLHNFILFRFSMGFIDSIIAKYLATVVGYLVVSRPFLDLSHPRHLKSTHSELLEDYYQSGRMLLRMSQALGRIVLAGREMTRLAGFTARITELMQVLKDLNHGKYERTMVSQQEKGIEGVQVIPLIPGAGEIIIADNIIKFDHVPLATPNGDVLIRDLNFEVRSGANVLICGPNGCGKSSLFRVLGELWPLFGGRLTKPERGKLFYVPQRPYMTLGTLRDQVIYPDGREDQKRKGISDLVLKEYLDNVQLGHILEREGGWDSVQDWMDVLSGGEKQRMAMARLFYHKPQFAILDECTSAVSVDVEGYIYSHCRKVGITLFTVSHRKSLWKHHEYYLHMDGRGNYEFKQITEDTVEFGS
T3: itself; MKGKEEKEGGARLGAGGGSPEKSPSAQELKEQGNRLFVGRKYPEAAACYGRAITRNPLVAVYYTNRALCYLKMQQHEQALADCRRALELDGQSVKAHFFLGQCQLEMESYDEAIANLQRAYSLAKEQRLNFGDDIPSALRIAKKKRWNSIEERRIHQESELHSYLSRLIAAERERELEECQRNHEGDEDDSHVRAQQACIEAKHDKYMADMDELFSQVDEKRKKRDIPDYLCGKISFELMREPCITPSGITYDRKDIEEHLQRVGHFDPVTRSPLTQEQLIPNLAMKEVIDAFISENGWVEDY
T4: itself; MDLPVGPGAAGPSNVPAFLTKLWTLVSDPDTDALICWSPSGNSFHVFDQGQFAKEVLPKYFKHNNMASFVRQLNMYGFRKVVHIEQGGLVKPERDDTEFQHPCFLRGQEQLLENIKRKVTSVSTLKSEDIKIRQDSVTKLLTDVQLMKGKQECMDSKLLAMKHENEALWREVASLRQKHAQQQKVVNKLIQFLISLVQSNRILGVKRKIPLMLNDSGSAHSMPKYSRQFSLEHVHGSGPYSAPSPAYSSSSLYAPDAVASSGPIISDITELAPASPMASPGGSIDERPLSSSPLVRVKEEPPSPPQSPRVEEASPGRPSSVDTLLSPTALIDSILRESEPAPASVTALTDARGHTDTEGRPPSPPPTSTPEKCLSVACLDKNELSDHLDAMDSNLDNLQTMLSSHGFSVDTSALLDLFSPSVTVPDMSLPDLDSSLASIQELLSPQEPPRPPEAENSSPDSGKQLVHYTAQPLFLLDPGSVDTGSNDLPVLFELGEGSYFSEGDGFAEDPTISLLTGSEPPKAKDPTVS
T5: itself; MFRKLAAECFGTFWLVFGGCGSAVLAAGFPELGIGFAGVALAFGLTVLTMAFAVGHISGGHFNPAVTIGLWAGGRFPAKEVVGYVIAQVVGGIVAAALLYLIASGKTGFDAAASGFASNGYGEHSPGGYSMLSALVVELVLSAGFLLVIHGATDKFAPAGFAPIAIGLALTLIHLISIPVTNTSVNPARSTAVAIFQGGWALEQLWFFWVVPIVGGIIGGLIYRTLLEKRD
T6: itself; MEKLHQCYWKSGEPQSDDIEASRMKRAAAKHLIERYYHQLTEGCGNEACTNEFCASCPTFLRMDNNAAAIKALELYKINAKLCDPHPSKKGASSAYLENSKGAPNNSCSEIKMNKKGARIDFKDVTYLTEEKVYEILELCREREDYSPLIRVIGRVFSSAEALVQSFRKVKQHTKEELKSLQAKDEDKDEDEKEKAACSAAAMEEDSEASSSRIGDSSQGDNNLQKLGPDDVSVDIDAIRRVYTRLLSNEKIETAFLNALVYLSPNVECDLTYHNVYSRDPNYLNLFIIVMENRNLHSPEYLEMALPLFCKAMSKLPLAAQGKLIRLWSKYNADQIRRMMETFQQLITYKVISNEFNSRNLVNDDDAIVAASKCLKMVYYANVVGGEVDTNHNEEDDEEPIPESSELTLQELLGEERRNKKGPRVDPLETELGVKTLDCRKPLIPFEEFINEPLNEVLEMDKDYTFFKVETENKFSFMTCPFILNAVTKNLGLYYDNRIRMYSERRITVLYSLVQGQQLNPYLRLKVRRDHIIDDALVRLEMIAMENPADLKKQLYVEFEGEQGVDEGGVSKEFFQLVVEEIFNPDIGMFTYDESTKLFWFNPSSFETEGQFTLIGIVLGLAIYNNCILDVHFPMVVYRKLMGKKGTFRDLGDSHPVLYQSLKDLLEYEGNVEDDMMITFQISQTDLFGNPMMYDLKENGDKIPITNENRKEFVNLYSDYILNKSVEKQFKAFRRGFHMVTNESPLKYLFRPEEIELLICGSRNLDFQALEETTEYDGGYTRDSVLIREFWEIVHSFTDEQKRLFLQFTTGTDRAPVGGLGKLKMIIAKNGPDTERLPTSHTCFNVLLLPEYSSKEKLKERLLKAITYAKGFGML
B1: PsbS mature (Arabidopsis thaliana, UniProt Q9XF91); chain AAPKKVEKPKSKVEDGIFGTSGGIGFTKANELFVGRVAMIGFAASLLGEALTGKGILAQLNLETGIPIYEAEPLLLFFILFTLLGAIGALGDRGKFVDDPPTGLEKAVIPPGKNVRSALGLKEQGPLFGFTKANELFVGRLAQLGIAFSLIGEIITGKGALAQLNIETGIPIQDIEPLVLLNVAFFFFAAINPGNGKFITDDGEES
B2: ABCD3 (Homo sapiens, UniProt P28288); chain MAAFSKYLTARNSSLAGAAFLLLCLLHKRRRALGLHGKKSGKPPLQNNEKEGKKERAVVDKVFFSRLIQILKIMVPRTFCKETGYLVLIAVMLVSRTYCDVWMIQNGTLIESGIIGRSRKDFKRYLLNFIAAMPLISLVNNFLKYGLNELKLCFRVRLTKYLYEEYLQAFTYYKMGNLDNRIANPDQLLTQDVEKFCNSVVDLYSNLSKPFLDIVLYIFKLTSAIGAQGPASMMAYLVVSGLFLTRLRRPIGKMTITEQKYEGEYRYVNSRLITNSEEIAFYNGNKREKQTVHSVFRKLVEHLHNFILFRFSMGFIDSIIAKYLATVVGYLVVSRPFLDLSHPRHLKSTHSELLEDYYQSGRMLLRMSQALGRIVLAGREMTRLAGFTARITELMQVLKDLNHGKYERTMVSQQEKGIEGVQVIPLIPGAGEIIIADNIIKFDHVPLATPNGDVLIRDLNFEVRSGANVLICGPNGCGKSSLFRVLGELWPLFGGRLTKPERGKLFYVPQRPYMTLGTLRDQVIYPDGREDQKRKGISDLVLKEYLDNVQLGHILEREGGWDSVQDWMDVLSGGEKQRMAMARLFYHKPQFAILDECTSAVSVDVEGYIYSHCRKVGITLFTVSHRKSLWKHHEYYLHMDGRGNYEFKQITEDTVEFGS
B3: Grm3 HA-SNAP tagged (Rattus norvegicus, UniProt P31422); chain LGDHNFMRREIKIEGDLVLGGLFPINEKGTGTEECGRINEDRGIQRLEAMLFAIDEINKDNYLLPGVKLGVHILDTCSRDTYALEQSLEFVRASLTKVDEAEYMCPDGSYAIQENIPLLIAGVIGGSYSSVSIQVANLLRLFQIPQISYASTSAKLSDKSRYDYFARTVPPDFYQAKAMAEILRFFNWTYVSTVASEGDYGETGIEAFEQEARLRNICIATAEKVGRSNIRKSYDSVIRELLQKPNARVVVLFMRSDDSRELIAAANRVNASFTWVASDGWGAQESIVKGSEHVAYGAITLELASHPVRQFDRYFQSLNPYNNHRNPWFRDFWEQKFQCSLQNKRNHRQVCDKHLAIDSSNYEQESKIMFVVNAVYAMAHALHKMQRTLCPNTTKLCDAMKILDGKKLYKEYLLKINFTAPFNPNKGADSIVKFDTFGDGMGRYNVFNLQQTGGKYSYLKVGHWAETLSLDVDSIHWSRNSVPTSQCSDPCAPNEMKNMQPGDVCCWICIPCEPYEYLVDEFTCMDCGPGQWPTADLSGCYNLPEDYIKWEDAWAIGPVTIACLGFLCTCIVITVFIKHNNTPLVKASGRELCYILLFGVSLSYCMTFFFIAKPSPVICALRRLGLGTSFAICYSALLTKTNCIARIFDGVKNGAQRPKFISPSSQVFICLGLILVQIVMVSVWLILETPGTRRYTLPEKRETVILKCNVKDSSMLISLTYDVVLVILCTVYAFKTRKCPENFNEAKFIGFTMYTTCIIWLAFLPIFYVTSSDYRVQTTTMCISVSLSGFVVLGCLFAPKVHIVLFQPQKNVVTHRLHLNRFSVSGTATTYSQSSASTYVPTVCNGREVLDSTTSSL
B4: aqpZ 1-231 (Escherichia coli, UniProt P60844); chain MFRKLAAECFGTFWLVFGGCGSAVLAAGFPELGIGFAGVALAFGLTVLTMAFAVGHISGGHFNPAVTIGLWAGGRFPAKEVVGYVIAQVVGGIVAAALLYLIASGKTGFDAAASGFASNGYGEHSPGGYSMLSALVVELVLSAGFLLVIHGATDKFAPAGFAPIAIGLALTLIHLISIPVTNTSVNPARSTAVAIFQGGWALEQLWFFWVVPIVGGIIGGLIYRTLLEKRD
Chain of UniProt P00847 (whole entry, looked up): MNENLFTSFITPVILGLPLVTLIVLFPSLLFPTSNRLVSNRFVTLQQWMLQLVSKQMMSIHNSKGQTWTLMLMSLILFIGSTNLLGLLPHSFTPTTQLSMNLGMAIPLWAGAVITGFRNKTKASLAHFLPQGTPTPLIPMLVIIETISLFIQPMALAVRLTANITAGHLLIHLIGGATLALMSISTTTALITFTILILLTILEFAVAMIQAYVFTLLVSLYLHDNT
Chain of UniProt Q9UHD2 (whole entry, looked up): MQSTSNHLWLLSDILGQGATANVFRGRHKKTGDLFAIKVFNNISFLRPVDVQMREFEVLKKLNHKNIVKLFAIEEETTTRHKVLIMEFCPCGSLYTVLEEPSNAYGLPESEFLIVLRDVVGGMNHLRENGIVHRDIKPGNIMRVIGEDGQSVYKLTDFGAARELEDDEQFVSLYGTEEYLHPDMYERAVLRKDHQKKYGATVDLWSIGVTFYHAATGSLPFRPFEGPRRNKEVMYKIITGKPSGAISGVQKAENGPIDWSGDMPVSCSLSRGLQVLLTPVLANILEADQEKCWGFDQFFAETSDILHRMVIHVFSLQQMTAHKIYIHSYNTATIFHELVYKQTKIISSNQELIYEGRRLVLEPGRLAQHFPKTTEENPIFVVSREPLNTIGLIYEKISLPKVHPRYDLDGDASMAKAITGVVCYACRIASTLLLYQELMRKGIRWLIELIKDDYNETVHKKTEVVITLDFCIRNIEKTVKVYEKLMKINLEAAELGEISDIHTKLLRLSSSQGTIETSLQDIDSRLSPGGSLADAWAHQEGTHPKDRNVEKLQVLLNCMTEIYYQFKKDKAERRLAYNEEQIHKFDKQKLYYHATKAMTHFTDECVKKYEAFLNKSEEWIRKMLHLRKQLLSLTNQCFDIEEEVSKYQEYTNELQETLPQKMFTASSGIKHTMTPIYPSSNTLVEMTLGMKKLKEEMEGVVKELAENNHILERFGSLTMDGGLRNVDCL

For `ACAT1 fragment, pY407 (Homo sapiens)`, “subunits per oligomer” read 4 (itself; sucrose density ultracentrifugation; phosphorylated, wild type).
Under “subunits per oligomer”, `APOE apoE4 V236E (Homo sapiens)` is recorded as 2 (itself; AUC; 30 µM).
Under “subunits per oligomer”, `B1 (PsbS mature)` is recorded as 2 (T1, itself; cross-linking; not purified).
`ERF fragment (Homo sapiens)`: “subunits per oligomer” 2 (itself; crystal structure; reduced, together with: DNA).
`F1Fo-ATP synthase (Bos taurus, UniProt P00847)`: “subunits per oligomer” 2 (itself; native gel, EMSA, SEC).
`glutamate decarboxylase holoenzyme, covalently bound PLP (Bacteroides fragilis)` — result for “subunits per oligomer”: 4 (itself; native gel).
`concanavalin A` — result for “subunits per oligomer”: 2 (itself; native MS).
`CAMK2D F368A/L405M (Homo sapiens)`: “subunits per oligomer” 2 (itself; mass photometry).
`gene 82 (mycobacteriophage)` — result for “subunits per oligomer”: 3 (itself; SEC).
`B2 (ABCD3)` — result for “subunits per oligomer”: 2 (T2, itself; cryo-EM; together with: phytanoyl-CoA).
`clcA fragment C85A/H234C/L406A/I409A/I410A/L413A (Escherichia coli)` — result for “subunits per oligomer”: 2 (itself; SEC).
`CRYAB αB-crystallin del54-61 (Homo sapiens)` — result for “subunits per oligomer”: 20 subunits (itself; SEC-MALS).
`B3 (Grm3 HA-SNAP tagged)`: “subunits per oligomer” 2 (itself; single-molecule pulldown; cell lysate; together with: agonist 45 min).
For `Cas5 fragment Q38W (Moraxella)`, “subunits per oligomer” read 2 (itself; SEC-MALS).
`sodN mature E17A/R47A (Streptomyces coelicolor)`: “subunits per oligomer” 3 and 6 (itself; SEC).
`STUB1 (Homo sapiens, UniProt Q9UNE7)` — result for “subunits per oligomer”: 2 (T3, itself; mass photometry; pH 7.4).
`cyanophycin synthetase 2 Q416A/R528G` — result for “subunits per oligomer”: 2 (itself; SEC).
`GlyRS αβ fusion (Oryza sativa)`: “subunits per oligomer” 2 (itself; cryo-EM).
Under “subunits per oligomer”, `EutT (Listeria monocytogenes)` is recorded as 4 (itself; SEC).
`ALD1 fragment (Toxoplasma gondii)`: “subunits per oligomer” 2 (itself; SEC).
`HSF1 (Homo sapiens, UniProt Q00613)`: “subunits per oligomer” 3 (T4, itself; cross-linking; PBMC).
Under “subunits per oligomer”, `popZ fragment (Caulobacter crescentus)` is recorded as 6 (itself; cryo-electron tomography).
`TBK1, pS172 (human, UniProt Q9UHD2)` — result for “subunits per oligomer”: 2 (itself; SEC-MALS).
For `CLTC/CLTA triskelion (Bos taurus)`, “subunits per oligomer” read 4 (itself; deep-etch electron microscopy).
Under “subunits per oligomer”, `NUTF2 (Homo sapiens, UniProt P61970)` is recorded as 2 (itself; native MS; not purified).
`CENPE fragment (Homo sapiens)` — result for “subunits per oligomer”: 2 (itself; SEC-MALS).
For `sodN mature H1A (Streptomyces coelicolor)`, “subunits per oligomer” read 6 (itself; ESI-MS; denaturing conditions).
`PopZ del102-128 (Caulobacter crescentus)`: “subunits per oligomer” 6 (itself; AUC; 25 °C).
Under “subunits per oligomer”, `LECA (Pisum sativum)` is recorded as 2 (itself; SEC-SAXS).
Under “subunits per oligomer”, `HARP fragment (Hydrogenobacter thermophilus)` is recorded as 12 (itself; cryo-EM).
Under “subunits per oligomer”, `B4 (aqpZ 1-231)` is recorded as 4 (T5, itself; native MS).
`MyoF tail (Toxoplasma gondii)`: “subunits per oligomer” over 6 (itself; SEC).
Under “subunits per oligomer”, `B2 (ABCD3)` is recorded as 2 (T2, itself; cryo-EM).
`yjoB fragment (Bacillus subtilis)` — result for “subunits per oligomer”: 12 (itself; crystal structure).
`comFB (Thermoanaerobacter brockii)` — result for “subunits per oligomer”: 2 (itself; SEC-MALS).
`CAMK2D C399R/H439R (Homo sapiens)`: “subunits per oligomer” 6 (itself; mass photometry).
Under “subunits per oligomer”, `UBE3A (Homo sapiens, UniProt Q05086)` is recorded as 4 and 2 (T6, itself; mass photometry).
Under “subunits per oligomer”, `MXAN_1565 GAF domain (Myxococcus xanthus)` is recorded as 2 (itself; cross-linking).
Under “subunits per oligomer”, `CRYBB2 Q70E/Q162E (Homo sapiens)` is recorded as 2 (itself; SEC-MALS).
Under “subunits per oligomer”, `IgM (Homo sapiens)` is recorded as 5 (itself; negative-stain electron microscopy).
`atpC fragment (Mycobacterium abscessus)`: “subunits per oligomer” 2 (itself; native gel EMSA).
For `HerA (Paenibacillus sp.)`, “subunits per oligomer” read 6 (itself; AUC).

Repeated from above:
`PopZ del102-128 (Caulobacter crescentus)`: “subunits per oligomer” 6 (itself; AUC; 25 °C).
`CRYAB αB-crystallin del54-61 (Homo sapiens)` — result for “subunits per oligomer”: 20 subunits (itself; SEC-MALS).
`CAMK2D F368A/L405M (Homo sapiens)`: “subunits per oligomer” 2 (itself; mass photometry).
`ALD1 fragment (Toxoplasma gondii)`: “subunits per oligomer” 2 (itself; SEC).
`STUB1 (Homo sapiens, UniProt Q9UNE7)` — result for “subunits per oligomer”: 2 (T3, itself; mass photometry; pH 7.4).
